Measured values from different studies.
Protocols differ between the studies behind these lines. “And” joins repeats or separate records; there may be more than shown.

SMILES | target or system | assay | test system | conditions | scale | quantity | value
C[C@@H]1OC(=O)NN=C1c1ccc(-c2ccc(F)cc2)c(C(F)(F)F)c1 |  | phase I trial, item: abdominal distension all grades | human patients | 20 mg loading then 1 mg daily |  | patients with adverse event | 50%
O=S(=O)(Nc1ccccc1)c1ccc(NC(=S)Nc2ccccc2)cc1 |  | item: ALT | male mouse, blood | oral, 5 mg/kg daily, 14 days |  | serum enzyme activity | 53.8 U/L
COc1cccc(Oc2ccccc2NC(=O)CNC(=O)c2cccc3ccccc23)c1 |  |  | esterase-deficient SCID mice, male, blood | oral, 15 mg/kg/day, 14 days, toxicity study |  | mean corpuscular hemoglobin | 14.8 pg and 15 pg and 14.9 pg
[O-][S+]1CCc2nc(N3CCC(c4ncc(Cl)cn4)CC3)nc(NC3(CO)CCC3)c21 (centres unmarked) |  | phase I trial, item: anal incontinence | idiopathic pulmonary fibrosis patients | 18 mg twice daily |  | subjects with adverse events | 10%
CCCN(CCC)CCNC(=O)c1cc(Sc2ccc(Cl)cc2)nc2ccccc12 | Vero-E6 | CellTiter-Glo ATP |  | concentration not given, 72 h, first round 5-point | relative to: DMSO 0%, hyamine -100%, more negative, more toxic | cytotoxicity efficacy | 0%
C[C@H]1COCCN1c1nc(NCc2cccnc2C(F)(F)F)c2cccnc2n1 |  |  | anaesthetized rat, plasma | intravenous, 30 mg/kg, 5 min |  | plasma concentration | 155 µg/mL
[NH2][Pt]([NH2])([OH])([OH])([Cl])[Cl] |  | ICP-MS, item: platinum | blood-brain barrier spheroids | 1 µM, 3 h, 37 °C |  | uptake | 0.2 ng/mL
CN[C@@H](C)C(=O)N[C@H]1CN(S(=O)(=O)c2cccc(S(=O)(=O)N3CC[C@H]4CC[C@@H](C(=O)NC(c5ccccc5)c5ccccc5)N4C(=O)[C@@H](NC(=O)[C@H](C)NC)C3)c2)CC[C@H]2CC[C@@H](C(=O)NC(c3ccccc3)c3ccccc3)N2C1=O |  |  | patients with advanced solid tumours | 4 mg, phase I monotherapy |  | treatment-related facial nerve disorder incidence | 0%
N#C/N=C1\SCCN1Cc1ccc(Cl)nc1 |  |  | soil | 28 days, nominal 1.1 |  | recovery | 4.54%
COc1ccc2nc3cc(Cl)ccc3c(Nc3cc(CN4CCCC4)c(O)c(CN4CCCC4)c3)c2n1 |  |  | mouse, blood | intraperitoneal, 14 mg/kg |  | eosinophils | 14.4%
CO[C@H]1C[C@@H]2CC[C@@H](C)[C@@](O)(O2)C(=O)C(=O)N2CCCC[C@H]2C(=O)O[C@H]([C@H](C)C[C@@H]2CC[C@@H](OC(=O)NCCOCCOCCOCCOCCOCCOCCOCCOCCC(=O)N3CCc4cc(Cn5nc(-c6ccc7oc(N)nc7c6)c6c(N)ncnc65)ccc4C3)[C@H](OC)C2)C[C@@H](O)[C@H](C)/C=C(\C)[C@@H](O)[C@@H](OC)C(=O)[C@H](C)C[C@H](C)/C=C/C=C/C=C/1C |  | phase 1 dose escalation, item: rash | advanced solid tumour patients | intravenous, 16 mg weekly, any grade |  | TRAE incidence | 25%
CC(C)C[C@H](NC(=O)[C@H](CCCCN)NC(=O)OCC1c2ccccc2-c2ccccc21)C(=O)N[C@H](C(=O)N[C@@H](Cc1ccccc1)C(=O)N[C@@H](Cc1ccccc1)C(=O)N[C@@H](CCCCN)C(=O)NCC(=O)N[C@@H](Cc1ccccc1)C(=O)N[C@@H](C)C(=O)N[C@@H](Cc1c[nH]c2ccccc12)C(=O)N[C@@H](CC(N)=O)C(=O)N[C@H](C(=O)N[C@H]1CSSC[C@@H](C(=O)N[C@@H](Cc2c[nH]cn2)C(=O)N[C@@H](CCCNC(=N)N)C(=O)N[C@@H](CCCNC(=N)N)C(=O)N[C@@H](C)C(=O)N[C@@H](CC(N)=O)C(N)=O)NC(=O)[C@H](C(C)C)NC(=O)[C@H](CCCNC(=N)N)NC(=O)[C@H](C(C)C)NC(=O)CNC(=O)[C@H](CC(N)=O)NC(=O)[C@H](CCCNC(=N)N)NC(=O)[C@H](Cc2ccc(O)cc2)NC(=O)[C@H](C(C)C)NC1=O)C(C)C)C(C)C |  | circular dichroism, item: antiparallel β-sheet | PBS | 80 µM, pH 7.4 |  | secondary structure content | 40.5%
C[C@]1(CO)Cc2ncn(-c3ccc(C#N)c(Cl)c3)c2C(=O)O1 |  |  | human, plasma | 80 mg once daily, fasted |  | Cmax at steady state | 2690 nM
CC(=O)c1c(C)c2cnc(Nc3ccc(C4CCN(CCS(C)(=O)=O)CC4)cn3)nc2n(C2CCCC2)c1=O |  |  | HR+/HER2- advanced breast cancer patients | oral, dose not given, all grades,, sample A patients |  | patients with neutropenia | 97.5%
CCN1[C@@H](C(=O)NC23CCC(C(=O)O)(CC2)CC3)[C@H](c2cccc(Cl)c2F)[C@]2(C(=O)Nc3cc(Cl)ccc32)C12CCCCC2 |  |  | patients with advanced solid tumours | oral, dose not given, all doses |  | Tinnitus incidence | 4.8%
COc1ncccc1-c1cnn2ccc(N3CCN(C(=O)OC(C)C)CC3)nc12 |  |  | rat, CCI cold allodynia model, plasma | oral, 1 mg/kg, 240 min |  | drug concentration | 100 nM
COc1cc2c(Oc3ccc4[nH]c(C)cc4c3F)ccnc2cc1OCC1(N)CC1 |  |  | paediatric recurrent refractory sarcoma | 12 mg |  | grade 3 abdominal distension | 0%
C=CC(=O)Nc1cc(Nc2ncc(C(=O)OC(C)C)c(-c3cn(C)c4ccccc34)n2)c(OC)cc1N(C)CCN(C)C |  |  | NSCLC patients, primary efficacy population | 160 mg once daily |  | fatal adverse reactions | 1.8%
O=C(Oc1ccc(Br)cc1)[c-]1cccc1.[Fe+2].c1cc[cH-]c1 |  | cyclic voltammetry | methanol/DMEM 1:1 with TBAPF6 | concentration not given, Pt disk electrode, Ag/AgCl reference, together with: scan rate 100 mV/s |  | reduction potential | 484 mV
CCN1CCN(Cc2ccc(Nc3ncc(F)c(-c4cc(F)c5nc6n(c5c4)[C@H](C)CCC6)n3)nc2)CC1 |  |  | advanced solid tumour patients | dose not given, Phase Ia monotherapy |  | Thrombocytopenia incidence, any grade | 25%
O=C(c1ccc(F)c(F)c1Nc1ccc(I)cc1F)N1CC(O)([C@@H]2CCCCN2)C1 |  |  | patients aged sample A to sample B years | oral, dose not given |  | related AE leading withdrawal | 29%
CCc1ccc(CC/C=C/c2ccc3c(c2)C(=O)CC3)cc1 |  |  | Sprague-Dawley rat, female | oral, 30 mg/kg/day, 14 days |  | TC | 1.52 mM
CCn1c2ccccc2c2cc(CN3CCN(Cc4cccc(Cl)c4)CC3)ccc21 | Vero-E6 | CellTiter-Glo ATP |  | concentration not given, 72 h, retest 8-point duplicates | relative to: DMSO 0%, hyamine -100%, more negative, more toxic | cytotoxicity efficacy | 0%
COc1ccc(C[C@@H]2NC(=O)[C@H]([C@@H](C)O)NC(=O)[C@@H]3[C@@H]4CCN3C(=O)[C@@H]3Cc5cn(c6ccc(F)cc56)CCCCCCN(Cc5ccc(cc5)CCNC(=O)[C@]5(C)CCCN5C2=O)C(=O)CCC(=O)N[C@@H](C)C(=O)N[C@H](CNC(=O)CCCCC[N+](C)(C)C)C(=O)N[C@@H](Cc2cccc(c2)CNC(=O)CO4)C(=O)N3)cc1 |  | item: Asthenia | humans | concentration not given, Study-003 |  | participants with adverse event | 3.2%
COc1cc(C2C3=C(COC3=O)N(CCO)c3cc4c(cc32)CCC4)cc(OC)c1OC (centres unmarked) |  |  | female C57BL/6 mice | intraperitoneal, 200 mg/kg, 72 h, single dose, mean |  | body weight | 23 g
O=C(Nc1ccccc1)C1CCN(C(=O)Oc2cccnc2)CC1 |  | adverse event reporting | healthy women | oral, 100 mg, 9 days |  | subjects with Tachycardia adverse event | 0%
Cc1c(COC(=O)[C@@H]2[C@H](/C=C(\Cl)C(F)(F)F)C2(C)C)cccc1-c1ccccc1 (racemic) |  | item: CYP2C8 | human, age 1 year, recombinant human CYP2C8 | 0.1 µM |  | enzyme contribution to clearance | 7.96%
N[C@@H]1c2ccccc2OC12CCN(c1cnc3c(N4CCCc5ncccc54)n[nH]c3n1)CC2 |  |  | patients advanced metastatic solid tumours | oral, 60 mg once daily, pooled cohort |  | peripheral oedema TRAE incidence | 36%
CN1CC[C@@H](c2c(O)cc(O)c3c(=O)cc(-c4ccc(C(F)(F)F)cc4Cl)oc23)[C@@H]1CO |  | item: Hypertension | relapsed or refractory haematological malignancies | oral, dose not given, all arms |  | patients with adverse event | 10%

For quick reference, copied from above:
SMILES | target or system | assay | test system | conditions | scale | quantity | value
CCn1c2ccccc2c2cc(CN3CCN(Cc4cccc(Cl)c4)CC3)ccc21 | Vero-E6 | CellTiter-Glo ATP |  | concentration not given, 72 h, retest 8-point duplicates | relative to: DMSO 0%, hyamine -100%, more negative, more toxic | cytotoxicity efficacy | 0%
CCCN(CCC)CCNC(=O)c1cc(Sc2ccc(Cl)cc2)nc2ccccc12 | Vero-E6 | CellTiter-Glo ATP |  | concentration not given, 72 h, first round 5-point | relative to: DMSO 0%, hyamine -100%, more negative, more toxic | cytotoxicity efficacy | 0%
N[C@@H]1c2ccccc2OC12CCN(c1cnc3c(N4CCCc5ncccc54)n[nH]c3n1)CC2 |  |  | patients advanced metastatic solid tumours | oral, 60 mg once daily, pooled cohort |  | peripheral oedema TRAE incidence | 36%
